Measurements collected from several papers.
Compare with care: the assays were run in different laboratories. ± marks the error that the study gave.
PDGFRA: Platelet-derived growth factor receptor alpha (PDGFRA, Homo sapiens, UniProt P16234)
Histone acetyltransferase RTT109 with Vps75: Histone acetyltransferase RTT109, with Vps75 (Saccharomyces cerevisiae, UniProt Q07794)
BRD4 BD1: Bromodomain-containing protein 4, BD1 (BRD4, Homo sapiens, UniProt O60885)
BRD4 BD2: Bromodomain-containing protein 4, BD2 (BRD4, Homo sapiens, UniProt O60885)
Faah: Fatty-acid amide hydrolase 1 (Faah, Rattus norvegicus, UniProt P97612)
UCHL1: Ubiquitin carboxyl-terminal hydrolase isozyme L1 (UCHL1, Homo sapiens, UniProt P09936)

Structure (SMILES)	target	assay	system	conditions	IC50 [nM]
COc1ccc([C@H]2N(c3ccc(Cl)c(Cl)c3)C(=O)[C@@H]3CCCN32)c(OC)c1OC (racemic)	mutant huntingtin exon 1 and calmodulin	protein binding, inhibitor, AlphaScreen			2200
COc1cc2nccc(Oc3ccc(NC(=O)c4cc5c(n(-c6ccccc6)c4=O)CCCC5=O)nc3)c2cc1OC	PDGFRA	cell viability, CellTiter-Glo	Ba/F3 expressing recombinant kinase	48 h	28.9
O=C1CCC(N2C(=O)c3cccc(NCCCCNC(=O)c4ccc(Oc5ccc(Cl)cc5NS(=O)(=O)c5ccc(Cl)c(C(F)(F)F)c5)cc4)c3C2=O)C(=O)N1 (centres unmarked)	Protein cereblon, with DDB1 (CRBN, Homo sapiens, UniProt Q96SW2)	binding, HTRF			39.3
CN(C)c1ccc(Nc2nc(-c3ccncc3)nc3c2CC(N)CC3)cc1 (centres unmarked)	TOP2B (Homo sapiens, UniProt Q02880)	DNA relaxation, inhibitor			> 100000
O=C(Nc1ccccc1)N1CCN(c2nc(-c3ccccc3)ns2)CC1	Histone acetyltransferase RTT109 with Vps75	enzyme activity, inhibitor, HTS, CPM-based, dose response			> 125000
COc1cc(N2CCN(C)CC2)ccc1Nc1ncc2c(n1)N(C)c1ccccc1C(=O)N2CC(F)(F)F	BRD4 BD1				> 10000
Cc1cnc(-c2ccc(-c3ccc(NC(=O)Nc4c(F)cc(F)cc4F)cc3F)c3c2C(=O)NC3)[nH]1	BTK (Homo sapiens, UniProt Q06187, C481S)	enzyme activity, inhibitor, mobility shift		together with: ATP 1 mM	13.1
Cc1c(Cl)cccc1Nc1ccccc1C(=O)O	D14, with SMXL7 (Arabidopsis thaliana, UniProt Q9SQR3)	complex formation, inhibitor, TR-FRET	Arabidopsis thaliana, AtD14-mEGFP 100 nM	300 min, together with: (+)-GR24 and 3 µg/mL FLAG-AtSMXL7	1650
CC[C@@H]1[C@H](F)C(=O)N[C@@H]1COc1nccc2cc(C(N)=O)c(OC)cc12	PTK2 (Homo sapiens, UniProt Q05397)	ATP-site binding, ActivX KiNativ profiling	THP-1 cell lysate	Lys1 FAK probe site	> 5000
COc1ccc(C2=NN(C3CCCCCC3)C(=O)[C@@H]3CC=CC[C@H]23)cc1-c1ccc(C(=O)NCC(N)=O)cc1 (relative stereo)	3',5'-cyclic-AMP phosphodiesterase 4B, isoform PDE4B1 (PDE4B, Homo sapiens, UniProt Q07343)	enzyme activity, inhibitor, scintillation proximity		together with: 0.5 µM substrate	398
CC1=CS(=O)(=O)c2ccccc21	Histone acetyltransferase RTT109 with Vps75	enzyme activity, inhibitor, HTS, CPM-based, dose response			> 125000
COc1cc2c(Nc3ccc(Cl)c(Cl)c3F)ncnc2cc1OC[C@@H]1C[C@@H]2CN(C)C[C@@H]2C1	Receptor-like protein kinase FERONIA (FER, Arabidopsis thaliana, UniProt Q9SCZ4)	inhibitor			80
CN(C)C(=O)c1cc2cnc(Nc3ccc(-c4ccc5c(=O)cc(N6CCNCC6)oc5c4)cc3)nc2n1C1CCCC1	BRD4 BD2	inhibitor			> 10000
O=C(Nc1cccnn1)N1CCC(=Cc2cccc(Oc3ccc(C(F)(F)F)cn3)c2)CC1	Faah	enzyme activity, inhibitor	rat brain membranes	45 min preincubation	2.7
CN(C)C(=O)c1cc2cnc(Nc3ccc(-c4cccc5c(=O)cc(N6CCOCC6)oc45)c(F)c3)nc2n1C1CCCC1	BRD4 BD1	inhibitor			22.9
O=C(Nc1cnccc1Cl)N1CCN(Cc2ccc3c(c2)OC(F)(F)O3)CC1	Faah	enzyme activity, inhibitor	rat brain membranes	15 min preincubation	272
Cc1c(N2CCOCC2)oc2c(-c3ccc(Nc4ncc5cc(C(=O)N(C)C)n(C6CCCC6)c5n4)cc3F)cccc2c1=O	BRD4 BD1	inhibitor			> 10000
Cc1ccc(NC(=O)c2ccc(C)c(C(F)(F)F)c2)cc1C#Cc1nn(C2CCC(O)CC2)c2ncnc(N)c12 (centres unmarked)	PDGFRA	inhibitor, radiometric kinase		together with: ATP 10 µM	1290
Cc1ccc(OCC(=O)Nc2ccc3c(c2)C(=O)NC3=O)cc1	Glycogen synthase kinase-3 beta, with Nav1.6 (GSK3B, Homo sapiens, UniProt P49841)	Nav1.6-GSK3β assembly, inhibitor, split-luciferase complementation	HEK293 cells (transfected)		50100

Structure (SMILES)	target	assay	system	conditions	IC50 [nM]
CN(C)C(=O)c1cc2cnc(Nc3cc(C(=O)O)cc(-c4ccc5c(=O)cc(N6CCOCC6)oc5c4)c3)nc2n1C1CCCC1	BRD4 BD2	inhibitor			> 10000
Cc1ccc(NS(=O)(=O)C2CS(=O)(=O)c3ccccc32)nc1 (centres unmarked)	Histone acetyltransferase RTT109 with Vps75	enzyme activity, inhibitor, HTS, CPM-based, dose response			> 125000
OC[C@H]1O[C@@H](Oc2cc3c4c(c2)[C@@H]([C@@H]2c5cc(O)cc6c5[C@@H](c5cc(O)cc(O)c5[C@H]2c2ccc(O)cc2)[C@H](c2ccc(O)cc2)O6)[C@H](c2ccc(O)cc2)c2c(O)cc(O)cc2[C@H]4[C@H](c2ccc(O)cc2)O3)[C@H](O)[C@@H](O)[C@@H]1O	Alpha-amylase 1A (AMY1A, Homo sapiens, UniProt P0DUB6)	enzyme activity, inhibitor, HPAEC-PAD		together with: maltoheptaose substrate	> 100000
CC#CC(=O)N1CCC[C@H]1c1nc(-c2ccc(C(=O)Nc3ccccn3)cc2)c2c(N)nccn12	LYN (Homo sapiens, UniProt P07948)				> 5000
O=S(=O)(Nc1ccccc1)c1cccc2nsnc12	Histone acetyltransferase RTT109 with Vps75	enzyme activity, inhibitor, HTS, CPM-based, dose response			> 125000
Cc1nc(-c2cnc(NC(C)C)n(C)c2=O)ccc1Oc1ccnc(-c2cnn(C)c2)c1	Cytochrome P450 2C8 (CYP2C8, Homo sapiens, UniProt P10632)	direct inhibition, inhibitor		no preincubation	75000
Cc1ccc2[nH]nc(-c3nnc(Nc4ccc(Cl)c(Cl)c4)s3)c2c1	thymidine phosphorylase	enzyme activity, inhibitor, spectrophotometric		pH 7.5, 25 °C	8310 ± 1250
COc1ccc(Cc2cnc(NC(=O)CCl)s2)cc1	UCHL1	inhibitor, ubiquitin-rhodamine cleavage		2 h preincubation	91000
O=C(Nc1cccc2c(=O)cc(-c3nnn[nH]3)oc12)c1ccc(OCCCCc2ccccc2)cc1	LRRC8A/LRRC8C (Homo sapiens, UniProt Q8IWT6+Q8TDW0, L134K/L136K)	ion current, inhibitor, whole-cell patch clamp	HCT116 LRRC8-/- transfected	at -100 mV	1900
Cc1ccc2[nH]nc(-c3nnc(Nc4ccc(F)cc4)s3)c2c1	thymidine phosphorylase	enzyme activity, inhibitor, spectrophotometric		pH 7.5, 25 °C	6800 ± 930
N#CC(=Cc1ccc(F)c([N+](=O)[O-])c1)C(=O)Nc1ccc(F)cc1	UCHL1	inhibitor, ubiquitin-rhodamine cleavage		2 h preincubation	> 200000
CN1CCN(c2ccc(Nc3ncc4cc(C#N)c(=O)n(C5CCCC5)c4n3)cc2)CC1	LRRK2 (Homo sapiens, UniProt Q5S007)				624
CN(C)C(=O)c1cc2cnc(Nc3ccc(-c4cccc5c(=O)cc(N6CCOCC6)oc45)cn3)nc2n1C1CCCC1	BRD4 BD1	inhibitor			1300
CCCCCCCCCCCCNC(=S)NCCCC[C@H](NC(=O)OCc1ccccc1)C(=O)N[C@@H](C)C(=O)N[C@@H](CCCNC(=N)N)C(N)=O	SIRT2 (Homo sapiens, UniProt Q8IXJ6)	enzyme activity, inhibitor			470 ± 50
O=S1(=O)CC(c2ccccc2)c2ccccc21 (centres unmarked)	Histone acetyltransferase RTT109 with Vps75	enzyme activity, inhibitor, HTS, CPM-based, dose response			> 125000
Cc1cc([C@@H](C)Nc2ccccc2C(=O)O)c2nc(N3CCC(F)(F)CC3)c(C#N)c(=O)n2c1	Phosphatidylinositol 4,5-bisphosphate 3-kinase catalytic subunit alpha isoform, with p85 alpha (PIK3CA, Homo sapiens, UniProt P42336, E545K)	enzyme activity, inhibitor, ADP-Glo		together with: 10 µM ATP	1510
O=c1c(O)c(-c2ccc(O)cc2)oc2cc(O)cc(O)c12	serine/threonine phosphatase Stp1 (Staphylococcus aureus, UniProt A0A0H2XF73)	enzyme activity, inhibitor		together with: pNPP	> 349000
CC(C)C[C@H](NC(=O)[C@H](Cc1ccccc1)NC(=O)OCc1ccccc1)C(=O)C=O	CAPN1 (Homo sapiens, UniProt P07384)				> 10000
CNC(=O)c1ccc(C2CCCN2c2cc(C3CCNCC3)ncn2)s1 (centres unmarked)	Catenin beta-1, with BCL9 HD2 (CTNNB1, Homo sapiens, UniProt P35222)	BCL9 binding, inhibitor, AlphaScreen			6590
